Experimental data collected from several papers.
Parts stem from different laboratories: compare values within a part only. Changes are numbered by the printed parent chain.

Study 1
Target: CCNB1, cyclin fold, Cln2 fusion (human)
Method: yeast growth competition, sequencing
Medium: yeast
Notes: weak parent motif
Reference: not given
Direction: higher = stronger binding
Starting sequence: CDT1 docking peptide (human); PPARRRLRLSVDE
`R5A L7A`: “normalised enrichment score” 0.174.
`V11A`: “normalised enrichment score” 0.416.
`P1A` — result for “normalised enrichment score”: 0.532.
`S10A` — result for “normalised enrichment score”: 0.365.
Under “normalised enrichment score”, `L7A` is recorded as 1.43.
For `D12A`, “normalised enrichment score” read 1.72.
`R5K` — result for “normalised enrichment score”: 0.58.
For `L9F`, “normalised enrichment score” read 1.2.
`R5A` — result for “normalised enrichment score”: -0.408.

Study 2
Target: Interferon regulatory factor 5, full length, phosphomimetic (IRF5, Homo sapiens, UniProt Q13568-2, residues 1-514, K96S/S451D/S453D/S456D/S462D)
Method: protein-binding microarray
Molecule type: double-stranded DNA, one strand shown
Medium: in vitro
Tested at: 250 nM
Notes: 60-bp whole probe
Together with: salmon DNA 0.4 mg/ml
Reference: random background probes
Direction: higher = stronger binding
All sequences stand within: GCCTAGCAC … GTCTTGATTCGCTTGACGCTGCTG
For `TTAGGTTTCCTTTCCCATTAGTGCTAG`, the log fluorescence was 1.63 z-score.
With `AACGGTTTCGGGACTGGGGACGTGCTA` the log fluorescence was 5.06 z-score.
`GAAGGACTGGGGTTTCGGGACGTGCTA` has a log fluorescence of 1.3 z-score.
For `TTAGAACTGAGTATCGCTTAGTGCTAG`, the log fluorescence was 2.21 z-score.
The log fluorescence of `TTAGATATCAATATCGATTAGTGCTAG` is reported as 5.24 z-score.
The log fluorescence of `TTAGGTTGCGGTTCCGGTTAGTGCTAG` is reported as 1.65 z-score.
`TTAGGTCTCTGTCTCGGTTAGTGCTAG` gave a log fluorescence of 0.415 z-score.
The log fluorescence of `TTGGGTCTCGGTTTCGGTTAGTGCTAG` is reported as 8.81 z-score.
With `GACGATTCCCGTTTCGAGACGTGCTAG` the log fluorescence was 2.37 z-score.
With `CTGAGATGCATTCTGGGCCCGTGCTAG` the log fluorescence was -0.514 z-score.
For `TCACATTGAGATTTTCATACTGTGCTA`, the log fluorescence was 0.855 z-score.
`GACGGACTTCTACTGCTGACGTGCTAG` has a log fluorescence of 0.00171 z-score.
With `GACGTTTTCGGTTCCGGGACGTGCTAG` the log fluorescence was 8.33 z-score.
`TTAGGACTGGGGATCGGTTAGTGCTAG` has a log fluorescence of -0.0635 z-score.
With `GACGGTTTCCTTATCCTGTCGTGCTAG` the log fluorescence was 1.13 z-score.
The log fluorescence of `GTAGGTATCCTACTGCTTTAGTGCTAG` is reported as -0.242 z-score.
With `TTTTTTTTCTTTAAAAGTGAGTGCTAG` the log fluorescence was 1.18 z-score.
`ACAGGAGTGTTTCTCAGTTTGTGCTAG` gave a log fluorescence of 0.211 z-score.

Study 3
Target: RNA binding protein fox-1 homolog 2, RRM domain, GST-SBP tag (RBFOX2, Homo sapiens, UniProt O43251-10, residues 100-194)
Method: RNA Bind-n-Seq
Molecule type: RNA
Medium: in vitro
Tested at: 365 nM
Notes: natural RNA segment, single round, ends assumed
Reference: no-protein control
Direction: higher = stronger binding
Construct (chain): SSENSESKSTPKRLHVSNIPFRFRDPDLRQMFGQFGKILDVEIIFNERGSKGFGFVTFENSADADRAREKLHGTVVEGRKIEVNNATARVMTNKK
Under “RBNS enrichment (R)”, `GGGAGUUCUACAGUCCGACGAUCCAGCCCCUCAGUGUAGCCACUUCACCACCCUGUGCACCCUAAGUGACUUUUGAUUCCUUGAACCUUUUACUUACUUGAGGUGAGGAAAUGUCUGAUAAUCUGCAAAACAAUGGAAUUCUCGGGUGCCAA` is recorded as 0.427.
`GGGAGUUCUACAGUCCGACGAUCUUUUGCAUUCAAAGGACAUCCACAUCUGUUGGAAGACUUUUAAGUGAGUUUUUGUUCUUAGAUAACCCACAUUAGAUGAAUGUGUUAAGUGAAAUGAUACUUGUACUCCCUGGAAUUCUCGGGUGCCAA`: “RBNS enrichment (R)” 0.843.
Under “RBNS enrichment (R)”, `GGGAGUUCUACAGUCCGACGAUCUUCAUGACAGAGAAGGGGAAGCCCUGUUCUGACAACAGACAUUUCAGACAACCUUGCUGGCUUUCCACACCUGCCUGGCCCCCUCCUCCCUCCACACUUCCACUUUGUCCUGGAAUUCUCGGGUGCCAA` is recorded as 0.328.
`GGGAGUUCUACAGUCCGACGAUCGACAACUGUAAAGAAAUCAAGCUGGCUGACUGUAUGAUUGCUAUUUACUUAAAGUUGACAACGUUAAUGAGUAAUUCCCCUCACCCCCCAAAAAAACAAUGUUAUUACUUUGGAAUUCUCGGGUGCCAA`: “RBNS enrichment (R)” 0.579.
`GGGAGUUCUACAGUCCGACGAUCUAAAAACUUGGGACUAUACAUGGUGAACUUACAGGAGGUUAGGGGGGAAAUAUUACUUAUCCAUCAGGUUUCUCUUUGGUUUUUGUAAACGGAGAGGACAGUUCUUAGUCUGGAAUUCUCGGGUGCCAA` — result for “RBNS enrichment (R)”: 0.979.
Under “RBNS enrichment (R)”, `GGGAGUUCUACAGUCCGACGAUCCCUGCCCCCCACCCUGCUCCCACAUCUGGGGGCCCAUGGGCCAGGAGUGGAUAAGCCUGCAUUAAUACAACCUUUCUCCAUUCACUUUCUAUUUACAAAUUAGGAAAGCAUGGAAUUCUCGGGUGCCAA` is recorded as 0.447.
`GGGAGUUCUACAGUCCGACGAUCUUUGAUGGUAAUAGUAUCCCAGUACAAAAAGGCUGUAAGAUAGUGAACCACAGUAGUCAUCUAUGUCUGUGCCUCCCUUCUUCAUUGGGGACAUUGUGGGCUGGAACAGCUGGAAUUCUCGGGUGCCAA`: “RBNS enrichment (R)” 0.531.
`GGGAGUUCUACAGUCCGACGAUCUUGACAUCUGGAGCUGGAGGCCUGCAUAGGCUGCAUGCAGACACGUGCCAGCGUGAAGCUGGUGAAGACCUGCCAGGAGGCAGCCACAGGCGAGUGCCAGCAGUGUUACUUGGAAUUCUCGGGUGCCAA`: “RBNS enrichment (R)” 0.54.

Study 4
Target: MAFK, bZIP domain (human)
Method: DHFR protein complementation
Medium: yeast
Notes: single substitutions, most at no-binding floor
Reference: wild-type JUN-FOS pair
Direction: higher = stronger binding
Starting sequence: JUN, bZIP domain (human); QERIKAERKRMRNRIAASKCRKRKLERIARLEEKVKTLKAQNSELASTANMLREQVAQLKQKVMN; partner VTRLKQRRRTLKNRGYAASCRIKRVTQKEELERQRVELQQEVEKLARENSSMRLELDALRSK
For `I28A`, the binding fitness was -1.32 natural log.
With `K39Y` the binding fitness was -1.28 natural log.
`S47M` gave a binding fitness of -1.45 natural log.
With `K34Q` the binding fitness was -1.35 natural log.
For `L52M`, the binding fitness was -1.5 natural log.
`L59W` has a binding fitness of -1.54 natural log.
The binding fitness of `A40R` is reported as -1.44 natural log.
For `N42D`, the binding fitness was -1.51 natural log.
`A49E` gave a binding fitness of -1.46 natural log.
`Q55H` gave a binding fitness of -1.5 natural log.
`T37L` has a binding fitness of -1.36 natural log.
With `S43H` the binding fitness was -1.41 natural log.
The binding fitness of `V56W` is reported as -1.52 natural log.
`I28G` has a binding fitness of -1.51 natural log.
The binding fitness of `T37C` is reported as -1.53 natural log.
The binding fitness of `E54D` is reported as -1.5 natural log.
For `R53P`, the binding fitness was -1.48 natural log.
`K36W` gave a binding fitness of -1.54 natural log.
`T48I` has a binding fitness of -1.48 natural log.
`A49C` gave a binding fitness of -1.43 natural log.
For `M51V`, the binding fitness was -1.33 natural log.
`L45E` has a binding fitness of -1.5 natural log.

Study 5
Target: Histone acetyltransferase KAT6A, winged helix 1, GST fusion (KAT6A, Homo sapiens, UniProt Q92794, residues 1-85)
Method: protein binding microarray
Molecule type: double-stranded DNA, one strand shown
Medium: in vitro
Tested at: not given
Notes: 8-mer, flanks averaged, mean of 2 arrays, mostly near background
Reference: not given
Direction: higher = stronger binding
Construct (chain): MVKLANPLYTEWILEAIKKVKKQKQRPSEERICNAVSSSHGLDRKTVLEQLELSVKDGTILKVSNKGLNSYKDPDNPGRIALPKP
`AAATGGGC` gave an E-score of -0.0909.
With `ACTTGTCG` the E-score was 0.116.
The E-score of `AACCGCCT` is reported as 0.203.
With `CTATGGCA` the E-score was -0.143.
The E-score of `CGGATACG` is reported as 0.302.
For `TCGGGAAA`, the E-score was 0.167.
The E-score of `ACATACGA` is reported as -0.161.
`ATCAGCAC` gave an E-score of -0.232.
`AAGAACAT` gave an E-score of -0.153.
`AGTGCGTA` has an E-score of 0.0624.
The E-score of `CTCACTTC` is reported as -0.165.
The E-score of `GTCATAAA` is reported as -0.209.
With `CCAAAAAC` the E-score was -0.148.
With `AAGTTCCA` the E-score was -0.17.
`TAAACCCA` has an E-score of -0.227.
The E-score of `AATACGAC` is reported as -0.101.
With `CATTTTCA` the E-score was -0.161.

Repeated from above (study 5):
`AGTGCGTA` has an E-score of 0.0624.
The E-score of `CTCACTTC` is reported as -0.165.
The E-score of `GTCATAAA` is reported as -0.209.
With `CCAAAAAC` the E-score was -0.148.
With `AAGTTCCA` the E-score was -0.17.
`TAAACCCA` has an E-score of -0.227.
The E-score of `AATACGAC` is reported as -0.101.
With `CATTTTCA` the E-score was -0.161.
